Measured values of several laboratories.
Every numbered part comes from another study and shows a few of its results, in no order.

Block 1
Target: Interferon regulatory factor 7, full length, phosphomimetic (IRF7, Homo sapiens, UniProt Q92985, residues 1-503, S101K/S471D/S472D/S475D/S476D/S477D/S483D/S484D/S487D)
UniProt Q92985, sequence (whole entry, unmodified, looked up): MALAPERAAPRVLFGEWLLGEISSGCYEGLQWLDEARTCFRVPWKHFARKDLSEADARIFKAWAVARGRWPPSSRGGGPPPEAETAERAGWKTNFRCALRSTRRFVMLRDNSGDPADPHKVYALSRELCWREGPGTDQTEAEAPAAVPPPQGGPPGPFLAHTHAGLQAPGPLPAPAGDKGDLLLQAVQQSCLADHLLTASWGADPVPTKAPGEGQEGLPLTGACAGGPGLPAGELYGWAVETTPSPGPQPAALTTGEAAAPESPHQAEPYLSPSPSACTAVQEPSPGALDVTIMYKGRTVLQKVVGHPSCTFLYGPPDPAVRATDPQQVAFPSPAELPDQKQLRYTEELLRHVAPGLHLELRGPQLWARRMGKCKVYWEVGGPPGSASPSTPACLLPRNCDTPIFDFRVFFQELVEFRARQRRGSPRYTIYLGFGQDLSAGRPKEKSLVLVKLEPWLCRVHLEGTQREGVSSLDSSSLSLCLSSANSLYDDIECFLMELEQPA
Technique: protein-binding microarray
Form: double-stranded DNA, one strand shown
Matrix: in vitro
Tested at: 250 nM
Setting: 60-bp whole probe
Added: salmon DNA 0.4 mg/ml
Baseline: random background probes
Direction: higher = stronger binding
All sequences stand within: GCCTAGCAC … GTCTTGATTCGCTTGACGCTGCTG
| Oligonucleotide | log fluorescence [z-score] |
| --- | --- |
| TCACTTCTCCCTTTCAGACTGTGCTAG | 1.24 |
| GACGGTTCCGGTATCGGGACGTGCTAG | 1.9 |
| TTAGGTTTCCTTTCCCTTAAGTGCTAG | 5.67 |
| CAAGTGGAGCCCAGGCCAGAGTGCTAG | -0.762 |
| GACGGTTTCGACTTTCTGGACGTGCTA | 10.3 |
| GACGAATTCAGTTCCGAGACGTGCTAG | 0.325 |
| TTCAGTTTCACTGCTGCCCTGTGCTAG | 0.525 |
| GACGGTTTCGGGCTTCGGGACGTGCTA | 4.12 |
| GACAGTATCCTTTTCCTGACGTGCTAG | 1.27 |
| TCAGTTCTTTTTTTCAAACTGTGCTAG | 1.6 |
| TGAGGTTTCCTTCTCCTTTAGTGCTAG | 1.99 |
| TTAGATTTCGGGTTTAGATTAGTGCTA | 1.74 |
| TTAAGTATCGGGACTGGGTTAGTGCTA | -0.0289 |
| TTAAGTATCGGACTGGGTTAGTGCTAG | 0.317 |
| CACGGACTGGGTATCGGGACGTGCTAG | -0.35 |
| TAAGGTTTCCTTCTCCTTTAGTGCTAG | 2.71 |
| CTTGGTAAATTTAGCCGACGGTGCTAG | -0.286 |
| GAAGGTATCGGTCTCGGGACGTGCTAG | 0.687 |
| GACGGTATCGACTTTCGGTACGTGCTA | 1.9 |
| TTAGAACGGGGGTTTCGATTAGTGCTA | 7.78 |
| TAGTCTCTTCTGCAGCCTTTGTGCTAG | 0.463 |

Block 2
Target: Sal-like protein 4, full length isoform B (SALL4, Homo sapiens, UniProt Q9UJQ4-2, residues 1-616)
Technique: universal PBM
Form: double-stranded DNA, one strand shown
Matrix: in vitro
Tested at: not given
Setting: 8-mer, flanks averaged, mean of replicates
Direction: higher = stronger binding
Residues (chain): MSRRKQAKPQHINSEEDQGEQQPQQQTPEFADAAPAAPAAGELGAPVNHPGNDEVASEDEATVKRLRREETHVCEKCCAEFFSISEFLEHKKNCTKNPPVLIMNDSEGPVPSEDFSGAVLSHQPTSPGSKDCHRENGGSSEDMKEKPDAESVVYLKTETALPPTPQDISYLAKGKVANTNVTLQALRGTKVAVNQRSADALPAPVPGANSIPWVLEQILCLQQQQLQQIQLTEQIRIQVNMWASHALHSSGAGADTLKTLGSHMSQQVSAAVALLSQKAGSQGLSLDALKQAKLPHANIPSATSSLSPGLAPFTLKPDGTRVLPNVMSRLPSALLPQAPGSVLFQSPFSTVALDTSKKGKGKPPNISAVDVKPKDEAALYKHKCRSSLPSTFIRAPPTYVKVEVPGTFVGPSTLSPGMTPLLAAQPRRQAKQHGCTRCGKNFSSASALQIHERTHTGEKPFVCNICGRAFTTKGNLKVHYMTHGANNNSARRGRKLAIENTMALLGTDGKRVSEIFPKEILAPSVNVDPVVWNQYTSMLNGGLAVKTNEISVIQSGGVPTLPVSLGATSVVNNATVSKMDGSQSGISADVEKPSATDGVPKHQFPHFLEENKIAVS
| Oligonucleotide | E-score |
| --- | --- |
| AGTTCGCA | -0.126 |
| AGCCGGGA | -0.27 |
| AAGAACGG | -0.177 |
| ACCAACTC | -0.0878 |
| CGCAGAGA | -0.182 |
| AAACATCA | 0.215 |
| AAACCTGC | -0.0615 |
| ACTTTCAG | -0.00105 |
| ATCAGTAA | 0.261 |
| ACCCGTGA | -0.302 |
| ATGCTTAA | 0.206 |
| CCGTTCGA | -0.0596 |
| AGACCGAA | -0.0104 |
| ATAAGACC | 0.171 |
| GGACGCCC | -0.274 |
| GGAAACCC | -0.203 |
| ATTCTCAG | 0.12 |
| ATCGGCGA | -0.172 |
| GCATACGC | 0.0368 |
| TAGGAATA | 0.229 |
| ACCACGCT | -0.135 |
| GCTTCTCA | -0.123 |
| AGATTCTA | 0.144 |
| AATCATTC | 0.235 |
| AGGCATTA | 0.0206 |

Block 3
Target: Sox, HMG box (Pigoraptor chileana)
Technique: Spec-seq
Form: double-stranded DNA, one strand shown
Matrix: in vitro
Tested at: not given
Setting: whole probe, mean of replicates
Baseline: not given
Direction: lower = stronger binding
All sequences stand within: GAGTCGTCTCGTCAGCAC … CCGTAGAGCACTCAGGTC
Residues (chain): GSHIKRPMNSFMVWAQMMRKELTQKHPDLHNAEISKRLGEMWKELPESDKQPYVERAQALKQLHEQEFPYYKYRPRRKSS
| Oligonucleotide | relative binding energy [ln ratio] |
| --- | --- |
| CATACGC | 0.334 |
| CATTTGT | -1.8 |
| CATCTTA | 0.314 |
| TATCGTT | -0.375 |
| TGAAGTT | 0.683 |
| TAGGGTT | 0.727 |
| GGATGTT | 0.599 |
| CTTCGTT | 0.664 |
| CATATTA | 0.133 |
| CATCACG | -0.0721 |
| TAAGGTT | 0.73 |
| ATACGTT | -0.0572 |
| GTAAGTT | 0.835 |
| CATCAAT | 0.154 |
| ATGGGTT | 0.351 |
| TACGGTT | 0.615 |
| CATTTCC | 0.816 |
| CATATCA | 0.18 |

Block 4
Target: Histone acetyltransferase KAT6A, winged helix 2, GST fusion (KAT6A, Homo sapiens, UniProt Q92794, residues 85-181)
Technique: protein binding microarray
Form: double-stranded DNA, one strand shown
Matrix: in vitro
Tested at: not given
Setting: 8-mer, flanks averaged, mean of 2 arrays, mostly near background
Baseline: not given
Direction: higher = stronger binding
Target sequence (chain): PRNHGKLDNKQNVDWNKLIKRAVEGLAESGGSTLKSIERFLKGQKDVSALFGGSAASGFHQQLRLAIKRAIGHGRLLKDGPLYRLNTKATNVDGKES
| Oligonucleotide | E-score |
| --- | --- |
| CGGATAGC | 0.0163 |
| ATGCCTCG | 0.125 |
| GATCCGTA | -0.0116 |
| CCTCGACG | 0.0327 |
| ATTCTAAA | 0.195 |
| ACCCGCAG | 0.221 |
| AATCTCGC | 0.171 |
| ATAAAGTG | 0.0302 |
| AAAACGTG | -0.24 |
| ACGATTGC | 0.0334 |
| ATGCCGGA | 0.152 |
| AATTAACA | 0.0501 |
| AATCCACT | -0.0225 |
| CCTGTGAG | -0.00328 |
| ATTGCCCG | 0.0449 |
| ATGTGACC | -0.0265 |

Block 5
Target: PABPC1L2, full length, GST fusion (mouse, UniProt A0ABA7IW68)
Technique: RNAcompete
Form: RNA
Matrix: in vitro
Tested at: 20 nM
Setting: 7-mer, probes averaged, single round
Baseline: mean of 7-mers
Direction: higher = stronger binding
Construct (chain): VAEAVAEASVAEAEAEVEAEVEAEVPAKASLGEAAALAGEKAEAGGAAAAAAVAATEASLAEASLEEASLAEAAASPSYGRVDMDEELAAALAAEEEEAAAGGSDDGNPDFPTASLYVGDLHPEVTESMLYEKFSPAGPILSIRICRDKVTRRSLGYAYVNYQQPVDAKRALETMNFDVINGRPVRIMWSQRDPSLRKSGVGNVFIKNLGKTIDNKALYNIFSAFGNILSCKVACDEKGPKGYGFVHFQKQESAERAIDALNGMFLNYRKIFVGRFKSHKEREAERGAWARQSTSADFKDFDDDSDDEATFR
| Oligonucleotide | 7-mer Z-score |
| --- | --- |
| CAACAGG | 0.16 |
| GAGACGG | 0.244 |
| GCCGUAG | -0.215 |
| CACUGUG | -0.191 |
| GCUUGGU | -0.182 |
| GGAUGGU | 0.173 |
| ACUUCAC | -0.191 |
| CGGACAG | 0.191 |
| AGUAUUG | -0.208 |
| GGCCAGG | 0.222 |
| GCCACUA | -0.193 |
| CCGCUCG | -0.47 |
| AGGUGGA | 0.289 |
| AUAAGGG | 0.263 |
| UCACUCA | -0.133 |
| GUACAGA | -0.0047 |
| AACUAAU | 0.046 |
| CGAACGG | -0.182 |
| AUACUCU | -0.342 |

Block 6
Target: Phosphate system positive regulatory protein PHO4, full length, GST-tagged (PHO4, Saccharomyces cerevisiae, UniProt P07270, residues 1-312)
Technique: competition protein-binding microarray
Form: double-stranded DNA, one strand shown
Matrix: in vitro
Tested at: 2 µM
Setting: whole 60-bp probe, lowest competitor level
Added: Cbf1 competitor, 0.05 µM
Direction: higher = stronger binding
Construct (chain): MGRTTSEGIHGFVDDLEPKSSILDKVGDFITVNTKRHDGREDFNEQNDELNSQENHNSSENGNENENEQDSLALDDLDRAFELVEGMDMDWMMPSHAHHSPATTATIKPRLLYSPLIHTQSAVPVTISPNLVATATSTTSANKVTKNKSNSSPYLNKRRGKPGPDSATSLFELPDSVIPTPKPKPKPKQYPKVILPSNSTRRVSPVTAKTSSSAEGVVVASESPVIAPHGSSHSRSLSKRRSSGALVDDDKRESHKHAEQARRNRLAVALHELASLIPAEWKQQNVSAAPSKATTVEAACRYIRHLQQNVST
| Oligonucleotide | fluorescence intensity |
| --- | --- |
| TTCTACAAAGCATTTCACATGCTAATAAAAGCCCCGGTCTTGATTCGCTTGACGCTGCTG | 6830 a.u. |
| CGTCCTAGTGATTGTCACGTAACTTCCATGAGGAAGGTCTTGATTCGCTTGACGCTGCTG | 4780 a.u. |
| TTTTTAATTTCTTATCATGCTCAATGTCAACAACTTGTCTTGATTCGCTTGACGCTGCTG | 4990 a.u. |
| GTCAACCTGCTGCCTGGCGTGCTTTGACTCAGTACAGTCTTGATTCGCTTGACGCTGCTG | 6890 a.u. |
| CTATGAAGACAACATCACCTGGAATGACATCTGGGGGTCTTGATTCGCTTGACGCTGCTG | 3860 a.u. |
| TGCGCAACAACTTGGCGCGTGGGTGTATGTCTAGAAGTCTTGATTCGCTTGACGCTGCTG | 11600 a.u. |
| AAAGCGGTAATTTGGGCCGTGGGTGCAGATATCTATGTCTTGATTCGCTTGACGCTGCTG | 6150 a.u. |
| GGTCATTGATGCTTGCATGTGCCGAGAAGCGGGACAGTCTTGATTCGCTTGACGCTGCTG | 11400 a.u. |
| AGCTACGGAAACCGTCACACTTTTTTTCTGCAAGAAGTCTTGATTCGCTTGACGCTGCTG | 3810 a.u. |
| AACTAGATGTTGTCTATCGTGATGGGAAACCAGAGAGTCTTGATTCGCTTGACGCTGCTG | 4050 a.u. |
| CGGGGTTAAGTTTGGAAGGTGGGTGGCTTGCAGCAGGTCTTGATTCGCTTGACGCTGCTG | 5550 a.u. |
| ATTAAAAAGTGGATAATCGTGGGACTTATGGGTAAAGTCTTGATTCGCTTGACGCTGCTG | 7690 a.u. |
| CGACTTGCGAGAAGACACGTGCGCGGAAGGAGCTTGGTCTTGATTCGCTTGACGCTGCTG | 19800 a.u. |
| CTGCGCATACGAATACACATGAGTGCCATAAAACAAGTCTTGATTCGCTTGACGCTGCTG | 7050 a.u. |
| GGAGTCAACGCTTTGCACGTGACGGCGGTACATAGTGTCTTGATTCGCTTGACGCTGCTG | 15400 a.u. |
| CTTTCCCGATCTTGAAGGGTGGGTGTAGCACATTTGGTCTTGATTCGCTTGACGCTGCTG | 4740 a.u. |
| CTTTTGCATCCGAGCCTCCTGGATAATAACTTCAATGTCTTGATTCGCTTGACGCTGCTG | 3250 a.u. |
| AGGGCATTGTCTACTCACGTGGTAATCAAATTCCAGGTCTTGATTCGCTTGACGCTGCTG | 14700 a.u. |

Repeated from above (block 4):
| Oligonucleotide | E-score |
| --- | --- |
| ATGCCGGA | 0.152 |
| ATTCTAAA | 0.195 |
| AAAACGTG | -0.24 |
| ATAAAGTG | 0.0302 |
| CGGATAGC | 0.0163 |
| ACCCGCAG | 0.221 |
| ATGTGACC | -0.0265 |
| CCTGTGAG | -0.00328 |
| ATTGCCCG | 0.0449 |
| AATCCACT | -0.0225 |
| AATTAACA | 0.0501 |
| ATGCCTCG | 0.125 |
| GATCCGTA | -0.0116 |
| ACGATTGC | 0.0334 |
